Results from different studies.
Several values in a cell are separate wells, animals, samples, runs or records. ± gives the spread as reported.

SMILES | test | system | conditions | how to read | measurement | value
N#Cc1ccc2c(CN3CCOCC3)cc(-c3ccc([C@H]4CCC(=O)N4)cc3)nc2c1 | decreased, refers to: Il6 | BTBR ob/ob mice, male, diabetic wound model, wound tissue | dose not given, 21 days | baseline: vehicle | mRNA level | decreased
c1ccc(-c2n[nH]cc2-c2ccnc3ccccc23)nc1 | kinase binding, competitor, MIB/MS competition, refers to: CEK1 | Candida albicans cell lysate | 100 nM | baseline: DMSO | log2 fold change | 1.22
CC(=O)OC(C)C[N+](C)(C)C (stereo not drawn) |  | rat colon ex vivo | 1 nM to 10 µM |  | contraction amplitude | increased
COc1nc(NCc2cn(-c3ccc(NC(=O)c4ccc(F)cc4)cc3)nn2)nc(OC)n1 | MTT | normal colonocytes, rat | 72 h |  | maximum non-toxic concentration | 1.4 ± 0.13 nM
Cc1ccc([C@@H]2O[C@H](CO)[C@@H](O)[C@H](O)[C@H]2O)cc1Cc1ccc(-c2ccc(F)cc2)s1 |  | Japanese type 2 diabetes patients | 25 mg, day 1 | baseline: day 0 | change in 24-h mean serum insulin | -3.4 µU/mL
Cc1cnc(N2CC3(CCOCC3)C2)c(C(=O)Nc2ccc(C(=O)N3CCc4cc(C(=O)Nc5c(C)cccc5F)sc4-c4ccccc43)cc2)c1 | refers to: CXCL8 | human RSV infection, plasma | dose not given, AUC, ITT-IS population | baseline: placebo | inhibition | 53%
CN(C)C(=O)c1cc2cnc(Nc3ccc(N4CCNCC4)cn3)nc2n1C1CCCC1 | RNA-seq GSEA, refers to: HALLMARK_P53_PATHWAY gene set | MB002 tumour | concentration not given | baseline: vehicle, direction not given | normalized enrichment score | -1.29
CO[C@H]1CC[C@H](N2C(=O)CNc3ncc(-c4ccc(C(C)(C)O)nc4)nc32)CC1 | flow cytometry | stimulated monocytes, human, blood | 60 mg single dose, 1.5 h, median | baseline: baseline | pAKT change from baseline | -40.2%
N=C(N)NCCC[C@H](NC(=O)[C@H](CCCNC(=N)N)NC(=O)[C@H](CCCCN)NC(=O)[C@H](CCC(N)=O)NC(=O)[C@H](CCCCN)NC(=O)[C@H](Cc1ccc(O)cc1)NC(=O)[C@@H](N)CCCCN)C(=O)N[C@@H](CO)C(=O)N[C@@H](Cc1ccc(O)cc1)C(=O)N[C@@H](CCCCN)C(=O)O |  | human, dentin hypersensitivity patients, male | topical to tooth, 10 µg/tooth, day 36, phase trial | direction not given | change from baseline in VAS score | -27.8 ± 21.2
C[C@H]1O[C@@H](O[C@H]2CC[C@@]3(C)[C@@H](CC[C@]4(C)[C@@H]3C=C[C@]35OC[C@@]6(CCC(C)(C)C[C@H]63)[C@@H](O)C[C@]54C)[C@]2(C)CO)[C@H](O)[C@@H](O[C@@H]2O[C@H](CO)[C@@H](O)[C@H](O)[C@H]2O)[C@H]1O |  | chronic-plus-binge ethanol-fed mice | oral, 15 mg/kg/day, 7 d | baseline: body weight | liver index | 3.91% and 3.56% and 4.72% and 4.35% and 4.26% and 3.48%
FC(F)(F)Oc1cccc(-c2cnc3ccc(-c4ccncc4)nn23)c1 |  | MDA-MB-231 xenograft, NSG mouse | oral, 10 mg/kg daily, day 13 | higher = larger tumour | tumour size | 0.148 a.u. and 0.117 a.u. and 0.172 a.u. and 0.126 a.u. and 0.075 a.u.
OC(CCN1CCCCC1)(c1ccccc1)C1CC2C=CC1C2 (stereo not drawn) | resting-state EEG | healthy elderly humans | oral, 2 mg, eyes open, LS mean |  | EEG Beta3-power Pz-O1 | 2.1 µV²
C[C@H]1C[C@H]2CSC(N)=N[C@@]2(c2nc(NC(=O)c3ccc(OC(F)F)cn3)cs2)CO1 | refers to: Aβx-40 | healthy adults, plasma | 125 mg once daily, day 4 | baseline: placebo | percent change from baseline | -72.3%
Cc1cc(Nc2ncc(Cl)c(Nc3ccccc3S(=O)(=O)C(C)C)n2)c(OC(C)C)cc1C1CCNCC1 |  | patients with advanced solid tumours | dose not given, with: gemcitabine and cisplatin |  | overall survival | 12 months
Cc1n[nH]c2ccc(-c3cc(OC[C@@H](N)Cc4ccccc4)cnc3-c3ccoc3)cc12 | kinase binding, competitor, MIB/MS competition, refers to: FPK1 | Candida albicans cell lysate | 10 µM | baseline: DMSO | log2 fold change | -0.41
CN[C@@H]1COc2c(S(=O)(=O)NC(=O)Nc3c4c(cc5c3CCC5)CCC4)cnn2C1 | refers to: IL-1β | human participants, whole blood ex vivo | 900 mg single dose, 48 h, with: LPS/ATP | baseline: baseline | inhibition | 48.4%
NCC(=O)Nc1cncc(-c2nn3c(=O)cc(N4CCNCC4)nc3s2)c1 | ADP-induced platelet aggregation, light transmission aggregometry | human, stable CAD on aspirin, platelets ex vivo | subcutaneous, 0.075 mg/kg, 180 min post-dose, with: ADP 20 µM |  | median inhibition | 0.95%
Cc1cc([C@H]2C[C@H]3[C@@H](C)SC(N)=N[C@@]3(c3ccc(F)cc3F)CO2)on1 | refers to: Aβx-42 | Mus musculus wild-type, brain | subcutaneous, 50 mg/kg, 18 h |  | Aβ42 level | 0.36 ng/g
Cn1cc(Nc2nccc(-c3ccc4c(c3)CN(C3COC3)CC[C@H]4NC(=O)c3cn(C(C)(C)C)nn3)n2)cn1 | refers to: G Beta Gamma Signaling | splenic B cells, mouse | in vivo, 30 mg/kg, IgD-activated B cells | baseline: vehicle, positive = activation | pathway activation z-score | 3.61
N#Cc1ccc2c(c1)[C@H]1CCCN(C(=O)c3ccc4[nH]cnc4c3)[C@H]1C2 |  | human, plasma | 10 mg, day 15, 360 h | baseline: placebo and baseline | change in fasting insulin | -9.4%
N=C(N)NCCC[C@@H](NC(=O)CCOCCOCCNC(=O)[C@H](CCCCNC(=O)CC[C@H](NC(=O)c1ccc(NCc2cnc3nc(N)[nH]c(=O)c3n2)cc1)C(=O)O)NC(=O)CO/N=C/[C@H](F)[C@@H](O)[C@H](O)[C@H](O)CO)C(=O)NCC(=O)N[C@H](CC(=O)O)C(N)=O [fluorine-18 labelled] |  | nude mice, MDA-MB-231 xenograft, tumour | dose not given, 2.5 h, with: unlabelled RGD 200 µg | baseline: unblocked | reduction of tumour uptake | ~55%
CC#CC(=O)N[C@H]1CCCN(c2c(F)cc(C(N)=O)c3[nH]c(C)c(C)c23)C1 |  | healthy volunteers, single ascending dose, serum | 10 mg, day 10 |  | change from baseline in serum IgM | -16.7 mg/L
NC/C(=C\F)COc1cccc(Cn2c(=S)[nH]c(=O)c3[nH]cnc32)c1 |  | rats, myocardial ischaemia/reperfusion (LAD ligation) | dose not given |  | fractional shortening | 37.8% and 33.7% and 43.1% and 26.9% and 39.8%

SMILES | test | system | conditions | how to read | measurement | value
CC(C)NCC(O)c1ccc(O)c(O)c1 (stereo not drawn) |  | ventricular cardiomyocytes, C57BL/6 mouse | dose not given, 0.308 s |  | sarcomere length | 1.72 µm
Oc1ccc(Br)cc1C=NCCN1CCOCC1 | superoxide scavenging |  | 200 µM |  | inhibition | 41.1%
O=C(NO)c1ccc(CN(c2cnccn2)c2cnccn2)cc1 |  | human, refractory solid tumours | dose not given, phase I, RECIST 1.1, sample B patients |  | median progression-free survival | 1.8 months
Cc1cc([C@H]2C[C@H]3[C@@H](CF)SC(N)=N[C@@]3(c3ccc(F)cc3F)CO2)on1 | refers to: Aβx-42 | Mus musculus wild-type, brain | subcutaneous, 30 mg/kg, 3 h |  | Aβ42 level | 0.47 ng/g
C[C@@H](O)CCOC(=O)C[C@@H](C)O | refers to: C14-OH/C12-DC acylcarnitine | human, plasma | 60 min, log2-transformed values |  | metabolite level | -6.75 ± 0.6 µmol/L
CCc1c(C)nc(-c2ccc(Cl)s2)nc1Nc1ccc(CC(=O)O)cc1 | refers to: PDE4D | C57BL/6J mice, MCD diet, liver | intraperitoneal, 0.3 mg/kg daily, MCD diet 6 weeks, dosed last two | baseline: vehicle | mRNA level | increased
FC(F)(F)Oc1cccc(-c2ccnc3[nH]c(C(F)(F)F)nc23)c1 |  | GAN diet MASH mice | 300 mg/kg, 31 days | baseline: GAN control | liver weight | no effect
O=C(COc1ccc(Cl)cc1)NC12CC(c3nnc([C@H]4C[C@@H](OC(F)(F)F)C4)o3)(C1)C2 |  | healthy human, PBMC | 200 mg once daily, day 15, 24 h post-dose, median, with: sodium arsenite ex vivo | baseline: baseline | CHAC1 mRNA change | -91.2%
Cc1cc(F)cc2c(CCC(=O)N[C@@H]3C(=O)NC[C@H]3O)c(-c3ccc(F)cc3)[nH]c12 |  | APOL1 G2 mice, IFNγ-induced | 30 mg/kg twice daily, day 8 |  | urine albumin/creatinine ratio | 613 µg/mg and 444 µg/mg and 8090 µg/mg and 2180 µg/mg and 823 µg/mg and 458 µg/mg
N#Cc1ccc2c(c1)[C@H]1CCCN(C(=O)c3ccc4[nH]cnc4c3)[C@H]1C2 | refers to: 2 h postprandial glucose | human, Phase II trial | oral, 80 mg once daily, day 28, adjusted mean, SE |  | change from baseline | 25.5 mg/dL
N#Cc1ccn2c(-c3ccncc3)c(-c3ccc(F)cc3)nc2c1 | kinase binding, competitor, MIB/MS competition, refers to: AKL1 | Candida albicans cell lysate | 100 nM | baseline: DMSO | log2 fold change | -0.115
CCOc1ccc(Cc2cc([C@@H]3S[C@H](CO)[C@@H](O)[C@H](O)[C@H]3O)c(OC)cc2C)cc1 |  | human | oral, dose not given, single ascending dose |  | urinary glucose excretion | 70.9 g/day
Cc1cc(C)c(CNC(=O)c2cc(Cl)c3c(c2C)O[C@@](C)([C@H]2CC[C@H](N(C)C)CC2)O3)c(=O)[nH]1 |  | relapsed/refractory non-Hodgkin lymphoma patients | dose not given, efficacy set |  | overall response rate | 55%
O=C(O)CNC(=O)Cc1ccccc1 |  | ventricular cardiomyocytes, C57BL/6 mouse | dose not given, 0 s |  | sarcomere length | 1.72 µm
CCN1[C@@H](C(=O)NC23CCC(C(=O)O)(CC2)CC3)[C@H](c2cccc(Cl)c2F)[C@]2(C(=O)Nc3cc(Cl)ccc32)C12CCCCC2 |  | human, advanced solid tumours, TP53 wild type | dose not given |  | median progression-free survival | 7.9 months
Cc1cn(-c2cc(NC(=O)c3ccc(C)c(Nc4nccc(-c5cccnc5)n4)c3)cc(C(F)(F)F)c2)cn1 | refers to: amyloid beta 40 | human, cerebrospinal fluid | dose not given, between 12 and 6 months, unit not given | baseline: placebo | median difference in change | 29
C=CC[C@@H]1/C=C(\C)C[C@H](C)C[C@H](OC)[C@H]2O[C@@](O)(C(=O)C(=O)N3CCCC[C@H]3C(=O)O[C@H](/C(C)=C/[C@@H]3CC[C@@H](O)[C@H](OC)C3)[C@H](C)[C@@H](O)CC1=O)[C@H](C)C[C@@H]2OC |  | rhesus monkey kidney transplant, kidney allograft | dose not given | direction not given | Banff v score | 0
CC[C@@H](C)[C@@H](NC(=O)[C@@H](Cc1ccc(O)cc1)NC(=O)[C@H]1CCCN1C(=O)[C@@H](CCCNC(=N)N)NC(=O)[C@H](N)Cc1c[nH]cn1)C(=O)N[C@H](C)C(=O)N[C@H](Cc1c[nH]cn1)C(=O)N[C@H](CCCNC(=N)N)C(=O)N[C@@H](C(=O)N[C@H](Cc1ccc(O)cc1)C(=O)N[C@H](CO)C(=O)N[C@H](Cc1ccccc1)C(N)=O)C(C)C | ex vivo flow cytometry | B16 tumour-bearing mice, tumor | dose not given |  | IFN-γ+ CD8+ T cell frequency | 21.8% and 30.4% and 19.1% and 24.8% and 24.4%
CCO |  | supine | concentration not given, 0 to 4 h | baseline: baseline | change in DBP AUEC(0-4 h) | -31 ± 17.9 mmHg·h
Cc1cc(-c2nc(C(=O)Nc3cc4oc(N5CCOCC5)nc4nc3N3CC[C@@H](O)C3)co2)ccn1 | immunohistochemistry, refers to: phospho-p38 | mouse, intracranial B16-F10 tumour | dose not given | baseline: total cells | pP38 positive cells | 11.4%
CCN1CCN(Cc2ccc(Nc3ncc(F)c(-c4cc(F)c5nc6n(c5c4)[C@H](C)CCC6)n3)nc2)CC1 |  | human advanced solid tumours | 400 mg, phase Ia monotherapy RECIST 1.1 |  | median progression-free survival | 22.3 months
CN(C)C(=O)Oc1cccc([N+](C)(C)C)c1 | neuromuscular block reversal | rat | dose not given, 5 (unit not given), with: cisatracurium | baseline: T1 twitch | train-of-four ratio | 22.4

Excerpt of the above:
SMILES | test | system | conditions | how to read | measurement | value
N#Cc1ccc2c(c1)[C@H]1CCCN(C(=O)c3ccc4[nH]cnc4c3)[C@H]1C2 |  | human, plasma | 10 mg, day 15, 360 h | baseline: placebo and baseline | change in fasting insulin | -9.4%
N=C(N)NCCC[C@@H](NC(=O)CCOCCOCCNC(=O)[C@H](CCCCNC(=O)CC[C@H](NC(=O)c1ccc(NCc2cnc3nc(N)[nH]c(=O)c3n2)cc1)C(=O)O)NC(=O)CO/N=C/[C@H](F)[C@@H](O)[C@H](O)[C@H](O)CO)C(=O)NCC(=O)N[C@H](CC(=O)O)C(N)=O [fluorine-18 labelled] |  | nude mice, MDA-MB-231 xenograft, tumour | dose not given, 2.5 h, with: unlabelled RGD 200 µg | baseline: unblocked | reduction of tumour uptake | ~55%
CC#CC(=O)N[C@H]1CCCN(c2c(F)cc(C(N)=O)c3[nH]c(C)c(C)c23)C1 |  | healthy volunteers, single ascending dose, serum | 10 mg, day 10 |  | change from baseline in serum IgM | -16.7 mg/L
NC/C(=C\F)COc1cccc(Cn2c(=S)[nH]c(=O)c3[nH]cnc32)c1 |  | rats, myocardial ischaemia/reperfusion (LAD ligation) | dose not given |  | fractional shortening | 37.8% and 33.7% and 43.1% and 26.9% and 39.8%
CC(C)NCC(O)c1ccc(O)c(O)c1 (stereo not drawn) |  | ventricular cardiomyocytes, C57BL/6 mouse | dose not given, 0.308 s |  | sarcomere length | 1.72 µm
